Published values from different studies.
Parts stem from different laboratories: compare values within a part only. Positions count from the first letter of the parent shown.
Chain of UniProt Q9Y616 (whole entry, looked up): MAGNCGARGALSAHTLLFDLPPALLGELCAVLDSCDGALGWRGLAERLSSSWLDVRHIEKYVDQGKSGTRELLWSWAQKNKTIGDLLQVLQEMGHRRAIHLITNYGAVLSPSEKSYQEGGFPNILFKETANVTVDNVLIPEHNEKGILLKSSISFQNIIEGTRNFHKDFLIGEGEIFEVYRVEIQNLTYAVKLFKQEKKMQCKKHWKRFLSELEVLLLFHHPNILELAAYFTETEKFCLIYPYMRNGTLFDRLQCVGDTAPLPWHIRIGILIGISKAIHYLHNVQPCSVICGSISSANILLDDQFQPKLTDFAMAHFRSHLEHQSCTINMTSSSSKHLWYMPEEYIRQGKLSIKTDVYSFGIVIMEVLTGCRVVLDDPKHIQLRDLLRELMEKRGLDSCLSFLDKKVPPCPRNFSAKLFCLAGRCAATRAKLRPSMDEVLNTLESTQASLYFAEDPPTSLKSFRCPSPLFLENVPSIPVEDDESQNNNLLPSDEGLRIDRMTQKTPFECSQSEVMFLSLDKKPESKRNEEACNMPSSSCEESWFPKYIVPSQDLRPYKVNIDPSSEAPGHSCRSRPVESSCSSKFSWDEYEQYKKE
Chain of UniProt P41743 (whole entry, looked up): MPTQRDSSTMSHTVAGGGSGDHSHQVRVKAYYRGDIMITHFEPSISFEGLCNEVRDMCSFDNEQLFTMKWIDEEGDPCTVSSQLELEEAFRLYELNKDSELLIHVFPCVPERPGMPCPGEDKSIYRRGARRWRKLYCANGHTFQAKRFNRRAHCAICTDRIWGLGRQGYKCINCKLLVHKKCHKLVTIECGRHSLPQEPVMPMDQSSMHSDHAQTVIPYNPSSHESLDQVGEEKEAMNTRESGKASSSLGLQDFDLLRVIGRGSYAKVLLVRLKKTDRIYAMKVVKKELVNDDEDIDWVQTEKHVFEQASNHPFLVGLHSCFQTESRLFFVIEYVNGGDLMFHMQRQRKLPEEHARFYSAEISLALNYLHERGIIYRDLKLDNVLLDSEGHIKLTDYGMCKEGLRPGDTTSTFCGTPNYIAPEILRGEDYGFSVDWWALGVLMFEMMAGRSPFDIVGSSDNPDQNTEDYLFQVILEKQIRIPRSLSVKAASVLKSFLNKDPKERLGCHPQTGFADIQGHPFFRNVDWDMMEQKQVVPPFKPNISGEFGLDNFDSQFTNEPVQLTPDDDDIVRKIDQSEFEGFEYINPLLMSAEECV
Chain of UniProt Q92630 (whole entry, looked up): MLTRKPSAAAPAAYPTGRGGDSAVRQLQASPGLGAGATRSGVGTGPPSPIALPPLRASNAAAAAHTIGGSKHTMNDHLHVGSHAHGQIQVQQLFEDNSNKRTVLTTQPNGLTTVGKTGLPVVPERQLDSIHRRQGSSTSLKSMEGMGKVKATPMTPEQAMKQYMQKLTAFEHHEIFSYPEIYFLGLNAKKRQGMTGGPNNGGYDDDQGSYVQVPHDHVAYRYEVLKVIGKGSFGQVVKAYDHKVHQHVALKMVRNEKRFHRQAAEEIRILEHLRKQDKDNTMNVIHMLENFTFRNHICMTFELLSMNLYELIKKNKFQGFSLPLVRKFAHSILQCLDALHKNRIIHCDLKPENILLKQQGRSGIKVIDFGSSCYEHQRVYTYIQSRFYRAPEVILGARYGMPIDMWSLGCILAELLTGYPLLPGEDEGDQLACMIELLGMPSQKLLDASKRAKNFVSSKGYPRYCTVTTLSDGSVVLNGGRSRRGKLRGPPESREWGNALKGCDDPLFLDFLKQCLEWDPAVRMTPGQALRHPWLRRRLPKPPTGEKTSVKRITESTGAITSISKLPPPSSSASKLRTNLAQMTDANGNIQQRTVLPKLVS
Chain of UniProt Q04759 (whole entry, looked up): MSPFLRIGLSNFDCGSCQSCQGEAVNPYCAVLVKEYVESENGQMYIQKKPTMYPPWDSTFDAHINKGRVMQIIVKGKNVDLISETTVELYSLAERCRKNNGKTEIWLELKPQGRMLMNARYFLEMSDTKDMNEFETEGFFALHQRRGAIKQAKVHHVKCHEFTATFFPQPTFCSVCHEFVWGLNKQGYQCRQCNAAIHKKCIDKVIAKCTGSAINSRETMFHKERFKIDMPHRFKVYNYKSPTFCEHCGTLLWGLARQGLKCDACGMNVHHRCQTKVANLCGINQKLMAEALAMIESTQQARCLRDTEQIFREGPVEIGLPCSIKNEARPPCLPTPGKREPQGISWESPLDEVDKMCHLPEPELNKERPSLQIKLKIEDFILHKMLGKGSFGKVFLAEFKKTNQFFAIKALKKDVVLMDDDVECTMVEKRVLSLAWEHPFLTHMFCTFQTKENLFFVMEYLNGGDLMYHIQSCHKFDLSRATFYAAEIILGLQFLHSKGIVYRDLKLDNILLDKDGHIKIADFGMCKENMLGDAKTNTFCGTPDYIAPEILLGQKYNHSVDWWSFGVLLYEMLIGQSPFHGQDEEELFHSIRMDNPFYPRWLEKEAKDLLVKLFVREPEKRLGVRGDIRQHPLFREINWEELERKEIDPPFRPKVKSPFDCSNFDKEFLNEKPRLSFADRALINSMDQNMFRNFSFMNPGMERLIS

Sample 1 — method: RNA Bind-n-Seq; form: RNA; sample: in vitro; tested at: not given; setting: 4-mer, random 30-nt RNA, single round; with: RocA, ADP, phosphate; baseline: input library; direction: higher = stronger binding; measurement: 4-mer enrichment
Target: ATP-dependent RNA helicase DDX3X, helicase core (DDX3X, Homo sapiens, UniProt O00571, residues 132-607)
Chain of UniProt O00571 (132-607, looked up): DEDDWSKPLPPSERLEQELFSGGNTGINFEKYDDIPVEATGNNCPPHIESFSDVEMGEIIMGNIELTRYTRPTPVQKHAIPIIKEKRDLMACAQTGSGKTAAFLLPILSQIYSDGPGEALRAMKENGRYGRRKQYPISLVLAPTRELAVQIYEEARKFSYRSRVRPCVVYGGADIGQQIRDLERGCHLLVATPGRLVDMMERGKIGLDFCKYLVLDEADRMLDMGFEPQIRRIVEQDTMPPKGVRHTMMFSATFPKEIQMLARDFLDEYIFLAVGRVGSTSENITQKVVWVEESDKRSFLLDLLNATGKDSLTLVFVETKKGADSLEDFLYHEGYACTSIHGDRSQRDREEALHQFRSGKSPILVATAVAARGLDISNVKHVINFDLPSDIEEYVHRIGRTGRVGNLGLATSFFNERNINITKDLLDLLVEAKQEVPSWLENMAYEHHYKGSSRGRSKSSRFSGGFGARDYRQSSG
CGCU: 0.637 fold
UUCC: 0.732 fold
AGCG: 1.2 fold
UUAU: 0.963 fold
AAUU: 1.01 fold
GGUC: 0.927 fold
CCCC: 1.04 fold
AUAG: 1 fold

Sample 2 — target: ATF5, bZIP domain (human); method: DHFR protein complementation; sample: yeast; baseline: wild-type JUN-FOS pair; direction: higher = stronger binding; measurement: binding fitness
Setting: single substitutions, most at no-binding floor
Starting sequence: JUN, bZIP domain (human); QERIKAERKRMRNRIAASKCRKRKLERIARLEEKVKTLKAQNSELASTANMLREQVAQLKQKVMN; partner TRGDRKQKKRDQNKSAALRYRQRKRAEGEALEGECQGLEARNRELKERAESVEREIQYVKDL
E44V: -1.54 natural log
L45R: -1.5 natural log
R30H: -1.56 natural log
L38C: -1.48 natural log
A46L: -1.18 natural log
K34V: -1.47 natural log
R30V: -1.49 natural log
S47L: -1.53 natural log

Sample 3 — method: DHFR PCA, dose-response; sample: yeast; with: (+)-ABA, dose series; direction: lower = more sensitive; measurement: ABA EC50
Target: ABI1, truncated, D143A, DHFR fusion (Arabidopsis thaliana, UniProt P49597)
Setting: Hill fit, not affinity, not high confidence
Starting sequence: PYL1, truncated, DHFR fusion (Arabidopsis thaliana, UniProt Q8VZS8); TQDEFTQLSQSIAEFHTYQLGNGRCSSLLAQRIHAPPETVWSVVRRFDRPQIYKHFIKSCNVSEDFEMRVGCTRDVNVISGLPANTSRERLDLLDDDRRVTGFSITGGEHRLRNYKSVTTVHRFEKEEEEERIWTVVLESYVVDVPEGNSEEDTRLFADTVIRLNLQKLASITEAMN
G71V: 401 µM
E89R: 0.719 µM
A35P: 0.405 µM
N165T: 753 µM
G102P: 11.1 µM
L169R: 2.42 µM
N114V: 1450 µM
N149C: 212 µM

Sample 4 — read-out: cell-free assay; method: competition with immobilised ligand; tested at: 1 µM; measurement: remaining binding
SMILES: CC(=O)C1=C(C)N(c2cccc(C(F)(F)F)c2)C(=O)N[C@@H]1c1ccc(C#N)nc1
MAPK1 (Homo sapiens, UniProt P28482): 98.9%
PRKCI (Homo sapiens, UniProt P41743): 100%
IRAK3 (Homo sapiens, UniProt Q9Y616): 100%
DYRK2 (Homo sapiens, UniProt Q92630): 100%
PRKCQ (Homo sapiens, UniProt Q04759): 83.3%

Sample 5 — read-out: enzyme activity; action: inhibitor; tested at: 0.5 µM; baseline: control; measurement: remaining activity
Target: Mitogen-activated protein kinase 1 (MAPK1, Homo sapiens, UniProt P28482)
COc1ccc(C(=O)Nc2sc3c(c2C(N)=O)CCCC3)cc1OC: 91.2%
Oc1ccc(-c2nc(-c3ccncc3)c(-c3ccc(F)cc3)[nH]2)cc1: 97.2%
O=C(Nc1cccc(Nc2cc(Nc3cccc(C(F)(F)F)c3)ncn2)c1)C1CC1: 101%
OCC(O)CCON=C1C(c2c(O)[nH]c3ccccc23)=Nc2ccccc21 (stereo not drawn): 89.8%
CC(C)[C@H](CO)Nc1nc(Nc2cc(N)cc(Cl)c2)c2ncn(C(C)C)c2n1: 95.4%
CCOC(=O)c1c(C)[nH]c(/C=C2\C(=O)Nc3ccccc32)c1C: 96.4%
O=C1NC(=O)C(c2cn(CCCn3ccnc3)c3ccccc23)=C1Nc1ccccc1: 94.8%
COc1ccc(OC)c2c(=S)c3ccccc3[nH]c12: 91.5%
C#Cc1cccc(Nc2ncnc3cc(OCCOC)c(OCCOC)cc23)c1: 116%
O=C1NC(=O)C(c2cn(CCCO)c3ncccc23)=C1c1cnccn1: 81.9%
Nc1ncnc2n[nH]c(Nc3ccc(F)cc3)c12: 80.8%
O=c1c2ccccc2[nH]c(=S)n1CCN1CCC(=C(c2ccc(F)cc2)c2ccc(F)cc2)CC1: 102%
Cc1ccc(Nc2nccc(N(C)c3ccc4c(C)n(C)nc4c3)n2)cc1S(N)(=O)=O: 103%
NCCNc1ncc(C(N)=O)c(Nc2cccc(C(F)(F)F)c2)n1: 94.3%
CN(C)c1ccc(C=C2C(=O)Nc3ccccc32)cc1: 96.4%
Cn1c2ccccc2c2c3c(c4c5ccccc5n(CCC#N)c4c21)CNC3=O: 104%
O=C(O)c1ccc2c3c1cccc3c(=O)n1c3ccccc3nc21: 100%
Cc1nc(-c2ccccc2)c(-c2ccncc2)o1: 90.3%
Cc1cccc(-c2[nH]c(C(C)(C)C)nc2-c2ccc3c(c2)OCO3)n1: 95.8%
COc1cc2ncnc(Nc3ccc(Oc4ccccc4)cc3)c2cc1OC: 99.8%
O=S(=O)(c1cccc2cnccc12)N1CCCNCC1: 98.1%
COc1cc2nccc(Oc3ccc(NC(=S)NC(=O)c4ccccc4C)cc3)c2cc1OC: 89.3%
Nc1[nH]nc2nc3ccccc3nc12: 100%
CO[C@H]1C[C@@H]2CC[C@@H](C)[C@@](O)(O2)C(=O)C(=O)N2CCCC[C@H]2C(=O)O[C@H]([C@H](C)C[C@@H]2CC[C@@H](O)[C@H](OC)C2)CC(=O)[C@H](C)/C=C(\C)[C@@H](O)[C@@H](OC)C(=O)[C@H](C)C[C@H](C)/C=C/C=C/C=C/1C: 101%
COc1ccc(CNC(=O)Nc2ncc([N+](=O)[O-])s2)cc1: 104%

Excerpt of the above (sample 1):
AAUU: 1.01 fold
UUAU: 0.963 fold
CCCC: 1.04 fold
